Assay results of several laboratories.
Protocols differ between the studies behind these lines. “And” joins repeats or separate records; there may be more than shown. ± gives the spread as reported.
CNR2: Cannabinoid receptor 2 (CNR2, Homo sapiens, UniProt P34972)
GNRHR: Gonadotropin-releasing hormone receptor (GNRHR, Homo sapiens, UniProt P30968)
C3AR1: C3a anaphylatoxin chemotactic receptor (C3AR1, Homo sapiens, UniProt Q16581)
Genome polyprotein NS2B-NS3 protease: Genome polyprotein, NS2B-NS3 protease (dengue virus type 2, UniProt P29990)
SUCNR1: Succinate receptor 1 (SUCNR1, Homo sapiens, UniProt Q9BXA5)
DGKA: Diacylglycerol kinase alpha (DGKA, Homo sapiens, UniProt P23743)

CCOC(=O)C(CC)(CCCSCCOCCOCCNC(=O)OC(C)(C)C)NC(=O)c1ccc(C2CC2)c(Cc2ccc(F)cc2)n1 (racemic)  EC50 (CNR2; cAMP, agonist): 0.036 µM
CCNC(=O)[C@@H]1CCCN1C(=O)[C@H](CCCNC(=N)N)NC(=O)[C@H](CC(C)C)NC(=O)[C@@H](COC(C)(C)C)NC(=O)[C@H](Cc1ccc(O)cc1)NC(=O)[C@H](CO)NC(=O)[C@H](Cc1c[nH]c2ccccc12)NC(=O)[C@H](Cc1cnc[nH]1)NC(=O)[C@@H]1CCC(=O)N1  EC50 (GNRHR; inositol phosphate, agonist, TR-FRET): 7.59e-05 µM
CCOC(=O)[C@](CC)(CCCSCCOCCOCCNC(=O)CCCCCN1C(=CC=CC=CC2=[N+](C)c3ccc4ccccc4c3C2(C)C)C(C)(C)c2c1ccc1ccccc21)NC(=O)c1ccc(C2CC2)c(Cc2ccc(F)cc2)n1  EC50 (CNR2; cAMP, agonist): 0.14 µM
C[N+](C)(C)CCOC(N)=O  EC50 (Chrnd/Chrna1/Chrne (Mus musculus, UniProt P02716+P04756+P20782); channel open probability, agonist; mouse; wild type): 400 µM
CC(C)C[C@H](NC(=O)[C@@H](N)[C@@H](C)O)C(=O)N[C@@H](CCC(N)=O)C(=O)N1CCC[C@H]1C(=O)N1CCC[C@H]1C(=O)N[C@@H](C)C(=O)N[C@@H](CO)C(=O)N[C@@H](CO)C(=O)N[C@@H](CCCNC(=N)N)C(=O)N[C@@H](CCCNC(=N)N)C(=O)N[C@@H](CCCNC(=N)N)C(=O)N[C@@H](Cc1c[nH]cn1)C(=O)N[C@@H](Cc1ccccc1)C(=O)N[C@@H](Cc1c[nH]cn1)C(=O)N[C@@H](Cc1c[nH]cn1)C(=O)N[C@@H](C)C(=O)N[C@@H](CC(C)C)C(=O)N1CCC[C@H]1C(=O)N1CCC[C@H]1C(=O)N[C@@H](C)C(=O)N[C@@H](CCCNC(=N)N)C(=O)O  EC50 (C3AR1; GoA protein dissociation, agonist, NanoBiT): 1.32 µM
N#Cc1cc(NC(=O)c2cc(-c3ccccc3)n(-c3ccccc3)n2)ccc1N1CCC2(CC1)CNC2  EC50 (Genome polyprotein NS2B-NS3 protease; reporter gene; HeLa): > 6.3 µM
CCOC(=O)C(CC)(CCCSCCOCCNc1ccc([N+](=O)[O-])c2nonc12)NC(=O)c1ccc(C2CC2)c(Cc2ccc(F)cc2)n1 (stereo not drawn)  EC50 (CNR2; cAMP, agonist): 0.171 µM
C[C@@]1(c2nc(-c3ccc(F)c4cn[nH]c34)no2)CCCN(C(=O)c2ccc(F)nc2)C1  EC50 (CNR2; cAMP, agonist, luciferase): 0.00806 µM
O=C(O)CC(NC(=O)c1ccc(COc2ccccc2)o1)C(=O)O (stereo not drawn)  EC50 (SUCNR1; inositol phosphate, agonist): 0.442 µM
CC(C)C[C@H](NC(=O)[C@@H](Cc1ccc2ccccc2c1)NC(=O)[C@H](Cc1ccc(O)cc1)NC(=O)[C@H](CO)NC(=O)[C@H](Cc1c[nH]c2ccccc12)NC(=O)[C@H](Cc1c[nH]cn1)NC(=O)[C@@H]1CCC(=O)N1)C(=O)N[C@@H](CCCNC(=N)N)C(=O)N1CCC[C@H]1C(=O)NCC(N)=O  EC50 (GNRHR; inositol phosphate, agonist, TR-FRET): 0.000224 µM
CC(C)C[C@H](NC(=O)[C@H](C)NC(=O)[C@H](CO)NC(=O)[C@@H]1CCCN1C(=O)[C@@H]1CCCN1C(=O)[C@H](CCC(N)=O)NC(=O)[C@H](CC(C)C)NC(=O)[C@@H](N)[C@@H](C)O)C(=O)N[C@@H](CCCNC(=N)N)C(=O)N[C@@H](CCCNC(=N)N)C(=O)N[C@@H](CCCNC(=N)N)C(=O)N[C@@H](Cc1c[nH]cn1)C(=O)N[C@@H](Cc1ccc(O)cc1)C(=O)N[C@@H](Cc1c[nH]cn1)C(=O)N[C@@H](Cc1c[nH]cn1)C(=O)N[C@@H](C)C(=O)N[C@@H](CC(C)C)C(=O)N1CCC[C@H]1C(=O)N1CCC[C@H]1C(=O)N[C@@H](CO)C(=O)N[C@@H](CCCNC(=N)N)C(=O)O  EC50 (C3AR1; cAMP, agonist, luciferase): 1.05 µM
CC(C)Oc1cc(Cl)ccc1CNc1cc(-c2ccccc2)nc2ncnn12  EC50 (G-protein coupled receptor 3 (GPR3, Homo sapiens, UniProt P46089, L128A); cAMP level, agonist): 0.0646 µM and 0.0331 µM and 0.0158 µM and 0.055 µM
Cc1nc(-c2ccncc2)sc1C(=O)Nc1cccc(C(N)=O)c1  EC50 (Genome polyprotein NS2B-NS3 protease; reporter gene; HeLa): > 50 µM
CC(C)(C(=O)N1CCC(Nc2nc3c(c(=O)[nH]2)CCCC3)CC1)c1ccc(Cl)cc1  EC50 (MRGPRD (Homo sapiens, UniProt Q8TDS7); miniGq recruitment, agonist, BRET1; HEK293T; wild-type receptor): 0.0661 µM
CCOC(=O)C(CC)(CCCSCCOCCOCCOCCNc1ccc([N+](=O)[O-])c2nonc12)NC(=O)c1ccc(C2CC2)c(Cc2ccc(F)cc2)n1 (stereo not drawn)  EC50 (CNR2; cAMP, agonist): 0.0092 µM
CCOC(=O)c1cnc(NCc2cccc(NC(=O)c3cc(-c4ccccc4)n(-c4ccccc4)n3)c2)nc1  EC50 (Genome polyprotein NS2B-NS3 protease; reporter gene; HeLa): 23 µM
O=C(Cc1ccc(OCc2ccccc2)cc1)NC1(C(=O)O)CCN(C(=O)c2ccc(-c3cccc(Cl)c3)cc2)CC1  EC50 (CNR2; cAMP, agonist, luciferase): > 10 µM
CCCCCCCC/C=C\CCCCCCCC(=O)NCCO  EC50 (Transient receptor potential cation channel subfamily V member 1 (Trpv1, Mus musculus, UniProt Q704Y3, Y555F); ion current, agonist, whole-cell patch clamp; 24 °C, Y555F, +80 mV): 0.74 ± 0.37 µM
O=C(O)CC(NC(=O)c1ccc(-c2ccc(F)cc2)o1)C(=O)O (stereo not drawn)  EC50 (SUCNR1; inositol phosphate, agonist): 2.28 µM
Cc1ccc(-n2nc(C(=O)Nc3cccc(C(N)=O)c3)cc2-c2ccc(CC(C)C)cc2)cc1  EC50 (Genome polyprotein NS2B-NS3 protease; reporter gene; HeLa): 12 µM
CC[C@H](C)[C@H](NC(=O)[C@H](CCCNC(=N)N)NC(=O)[C@H](CCCNC(=N)N)NC(=O)[C@H](CC(C)C)NC(=O)[C@H](Cc1ccccc1)NC(=O)CNC(=O)CN)C(=O)N[C@@H](CCCNC(=N)N)C(=O)N1CCC[C@H]1C(=O)N[C@@H](CCCCN)C(=O)N[C@@H](CC(C)C)C(=O)N[C@@H](CCCCN)C(=O)O  EC50 (Probable G-protein coupled receptor 139 (GPR139, Homo sapiens, UniProt Q6DWJ6); calcium response, agonist, BRET; HEK293T/17, transfected): 1.75 ± 0.95 µM
CCOC(=O)[C@](CC)(CCCSCCOCCOCCN)NC(=O)c1ccc(C2CC2)c(Cc2ccc(F)cc2)n1  EC50 (CNR2; cAMP, agonist): 0.0005 µM
NC(=O)c1cccc(NC(=O)c2cccnc2N2CCOCC2)c1  EC50 (Genome polyprotein NS2B-NS3 protease; reporter gene; HeLa): > 50 µM
Cn1c(=O)n(C2CCC(=O)NC2=O)c2ccc(C3CCN(CC(=O)Nc4cccc(CS(=O)(=O)N5CC[C@H](Nc6cccc(-c7sc(C(=O)O)c(OCC(=O)O)c7Cl)c6)CC5(C)C)c4)CC3)cc21 (stereo partly drawn)  EC50 (Receptor-type tyrosine-protein phosphatase beta (Homo sapiens, UniProt P23467); phosphatase activity; added: DiFMUP substrate): > 10 µM
COc1ccc(C(=O)c2c(C(=O)NCCCN(C)C)oc3ccc(Cl)cc3c2=O)cc1OC  EC50 (Growth hormone secretagogue receptor type 1 (GHSR, Homo sapiens, UniProt Q92847); Gα12 dissociation, agonist, TRUPATH BRET; HEK293T): 1.26 µM
CCOC(=O)C(CC)(CCCSCCOCCOCCOCCN)NC(=O)c1ccc(C2CC2)c(Cc2ccc(F)cc2)n1 (stereo not drawn)  EC50 (CNR2; cAMP, agonist): 0.0099 µM
C[C@@H]1CN(c2cc(=O)n(C)c3ccc(C#N)nc23)[C@@H](C)CN1Cc1ccc(S(=O)(=O)n2cnc(C3CC3)n2)cc1  EC50 (DGKA; plasma membrane translocation, activator, TIRF microscopy, item: endogenous DGKα; NG-DGKα knock-in cells; 720 s): 0.039 µM
CC[C@H](C)[C@H](NC(=O)[C@H](Cc1ccc(O)cc1)NC(=O)[C@H](CCCNC(=N)N)NC(=O)[C@H](CCCNC(=N)N)NC(=O)[C@H](CC(C)C)NC(=O)[C@H](CC(=O)O)NC(=O)[C@H](C)NC(=O)[C@H](C)NC(=O)[C@H](Cc1ccc(O)cc1)NC(=O)[C@H](CCC(N)=O)NC(=O)[C@H](C)NC(=O)[C@H](CCSC)NC(=O)[C@H](CCC(N)=O)NC(=O)[C@H](CCC(=O)O)NC(=O)[C@@H]1CCCN1C(=O)[C@@H](NC(=O)[C@H](C)NC(=O)[C@H](CC(N)=O)NC(=O)[C@H](CC(=O)O)NC(=O)CNC(=O)[C@@H]1CCCN1C(=O)[C@H](Cc1ccc(O)cc1)NC(=O)[C@@H](NC(=O)[C@@H]1CCCN1C(=O)[C@H](CCCCN)NC(=O)[C@H](CC(C)C)NC(=O)[C@@H]1CCCN1C(=O)[C@H](C)N)C(C)C)[C@@H](C)O)C(=O)N[C@@H](CC(N)=O)C(=O)N[C@@H](CCSC)C(=O)N[C@@H](CC(C)C)C(=O)N[C@H](C(=O)N[C@@H](CCCNC(=N)N)C(=O)N1CCC[C@H]1C(=O)N[C@@H](CCCNC(=N)N)C(=O)N[C@@H](Cc1ccc(O)cc1)C(N)=O)[C@@H](C)O  EC50 (Neuropeptide Y receptor type 1 (NPY1R, Homo sapiens, UniProt P25929); agonist): 0.0123 µM
CCc1cc(O)cc2c(/C=N/NC(=N)NCCc3ccc(Cl)cc3)c[nH]c12  EC50 (Relaxin-3 receptor 2 (RXFP4, Homo sapiens, UniProt Q8TDU9, L118S/V122S); agonist): 0.00692 µM
O=C(c1cc(-c2ccccc2)n(-c2ccccc2)n1)N1CCN(Cc2ccccn2)CC1  EC50 (Genome polyprotein NS2B-NS3 protease; reporter gene; HeLa): 13 µM
O=C1C[C@H](c2nc(-c3ccc(F)c4cn[nH]c34)no2)CCCN1c1ccc(F)cc1 (racemic)  EC50 (Cannabinoid receptor 2 (CNR2, Homo sapiens, UniProt P34972, F281A); cAMP level, GloSensor cAMP; CB2 mutant): 0.724 µM
CC[C@H]1CN([C@@H](CC)c2ccc(C(F)(F)F)cc2)[C@H](CC)CN1c1nc(=O)n(C)c2ccc(C#N)nc12  EC50 (DGKA; membrane translocation, high-content imaging; Jurkat, DGKα-YFP; 1 h): 0.026 µM
Fc1ccc(CN2CCC[C@@H](c3nc(-c4ccc(F)c5cn[nH]c45)no3)C2)cn1  EC50 (CNR2; cAMP, agonist, luciferase): 0.096 µM
O=C(Nc1ccc(N2CCNCC2)cc1)c1cc(-c2ccccc2)n(-c2ccccc2)n1  EC50 (Genome polyprotein NS2B-NS3 protease; reporter gene; HeLa): > 24 µM
CC1CCc2nccnc21 (stereo not drawn)  EC50 (uncharacterized protein (Canis lupus familiaris, UniProt A0A8I3P1R6); cAMP level, agonist, cAMP luminescence; HEK293 cells): > 1500 µM
C=C1C(=O)OC2C=C(C)C(OC(C)=O)CC=C(COC(C)=O)CC(OC(=O)C(C)=CCO)C12 (stereo not drawn)  EC50 (Branched-chain-amino-acid aminotransferase, cytosolic (BCAT1, Homo sapiens, UniProt P54687)): 11.7 µM
O=C(NCc1ccccn1)c1cc(-c2ccccc2)n(-c2ccccc2)n1  EC50 (Genome polyprotein NS2B-NS3 protease; reporter gene; HeLa): 18 µM
CCOC(=O)C(CC)(CCCSCCOCCNC(=O)OC(C)(C)C)NC(=O)c1ccc(C2CC2)c(Cc2ccc(F)cc2)n1 (stereo not drawn)  EC50 (CNR2; cAMP, agonist): 0.0032 µM
Nc1ncnc2c1ncn2[C@@H]1O[C@H](COP(=O)(O)OP(=O)(O)OC[C@H]2OC(O)[C@H](O)[C@@H]2O)[C@@H](O)[C@H]1OP(=O)(O)O (stereo partly drawn)  EC50 (TRPM2 (Nematostella vectensis, UniProt A7T1N0, M197C/H1174C); agonist): 0.096 ± 0.01 µM

Some of these lines once more:
O=C(Cc1ccc(OCc2ccccc2)cc1)NC1(C(=O)O)CCN(C(=O)c2ccc(-c3cccc(Cl)c3)cc2)CC1  EC50 (CNR2; cAMP, agonist, luciferase): > 10 µM
CCOC(=O)C(CC)(CCCSCCOCCOCCOCCN)NC(=O)c1ccc(C2CC2)c(Cc2ccc(F)cc2)n1 (stereo not drawn)  EC50 (CNR2; cAMP, agonist): 0.0099 µM
CCOC(=O)[C@](CC)(CCCSCCOCCOCCN)NC(=O)c1ccc(C2CC2)c(Cc2ccc(F)cc2)n1  EC50 (CNR2; cAMP, agonist): 0.0005 µM
